Published values from different studies.
Lines come from different studies, so protocols differ. “And” joins repeats or separate records; there may be more than shown. ± marks the error that the study gave.
Chain of UniProt Q9ULW8 (whole entry, looked up): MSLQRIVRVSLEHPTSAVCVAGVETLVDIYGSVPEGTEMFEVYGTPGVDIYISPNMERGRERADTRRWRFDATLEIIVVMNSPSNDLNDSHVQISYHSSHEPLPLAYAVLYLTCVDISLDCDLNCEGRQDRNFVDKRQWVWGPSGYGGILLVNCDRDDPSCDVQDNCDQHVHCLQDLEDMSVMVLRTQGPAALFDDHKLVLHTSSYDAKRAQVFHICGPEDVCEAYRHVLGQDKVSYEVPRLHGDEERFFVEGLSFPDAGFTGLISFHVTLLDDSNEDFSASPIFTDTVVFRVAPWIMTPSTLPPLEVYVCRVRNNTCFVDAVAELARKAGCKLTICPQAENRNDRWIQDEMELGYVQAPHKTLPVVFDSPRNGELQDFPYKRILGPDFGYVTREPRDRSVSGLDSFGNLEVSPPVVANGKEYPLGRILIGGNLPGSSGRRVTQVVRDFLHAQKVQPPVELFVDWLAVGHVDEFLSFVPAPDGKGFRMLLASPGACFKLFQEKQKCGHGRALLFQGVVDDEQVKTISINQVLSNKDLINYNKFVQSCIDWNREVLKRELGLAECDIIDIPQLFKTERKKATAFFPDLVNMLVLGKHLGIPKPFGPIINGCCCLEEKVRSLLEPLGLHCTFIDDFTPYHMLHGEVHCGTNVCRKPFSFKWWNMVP
Chain of UniProt P21554 (whole entry, unmodified, looked up): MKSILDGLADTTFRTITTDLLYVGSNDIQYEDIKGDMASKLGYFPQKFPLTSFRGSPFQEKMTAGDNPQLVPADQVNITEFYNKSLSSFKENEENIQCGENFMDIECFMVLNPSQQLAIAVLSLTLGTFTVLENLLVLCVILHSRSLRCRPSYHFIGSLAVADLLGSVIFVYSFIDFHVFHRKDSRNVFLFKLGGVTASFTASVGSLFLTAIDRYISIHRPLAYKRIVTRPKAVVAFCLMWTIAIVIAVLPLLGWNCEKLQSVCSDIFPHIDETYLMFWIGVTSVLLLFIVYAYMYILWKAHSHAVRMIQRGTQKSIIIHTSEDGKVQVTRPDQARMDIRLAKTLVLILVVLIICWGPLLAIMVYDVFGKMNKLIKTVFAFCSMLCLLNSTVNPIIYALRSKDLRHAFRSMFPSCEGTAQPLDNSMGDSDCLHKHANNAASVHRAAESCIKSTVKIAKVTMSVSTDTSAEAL
Chain of UniProt P29323 (whole entry, looked up): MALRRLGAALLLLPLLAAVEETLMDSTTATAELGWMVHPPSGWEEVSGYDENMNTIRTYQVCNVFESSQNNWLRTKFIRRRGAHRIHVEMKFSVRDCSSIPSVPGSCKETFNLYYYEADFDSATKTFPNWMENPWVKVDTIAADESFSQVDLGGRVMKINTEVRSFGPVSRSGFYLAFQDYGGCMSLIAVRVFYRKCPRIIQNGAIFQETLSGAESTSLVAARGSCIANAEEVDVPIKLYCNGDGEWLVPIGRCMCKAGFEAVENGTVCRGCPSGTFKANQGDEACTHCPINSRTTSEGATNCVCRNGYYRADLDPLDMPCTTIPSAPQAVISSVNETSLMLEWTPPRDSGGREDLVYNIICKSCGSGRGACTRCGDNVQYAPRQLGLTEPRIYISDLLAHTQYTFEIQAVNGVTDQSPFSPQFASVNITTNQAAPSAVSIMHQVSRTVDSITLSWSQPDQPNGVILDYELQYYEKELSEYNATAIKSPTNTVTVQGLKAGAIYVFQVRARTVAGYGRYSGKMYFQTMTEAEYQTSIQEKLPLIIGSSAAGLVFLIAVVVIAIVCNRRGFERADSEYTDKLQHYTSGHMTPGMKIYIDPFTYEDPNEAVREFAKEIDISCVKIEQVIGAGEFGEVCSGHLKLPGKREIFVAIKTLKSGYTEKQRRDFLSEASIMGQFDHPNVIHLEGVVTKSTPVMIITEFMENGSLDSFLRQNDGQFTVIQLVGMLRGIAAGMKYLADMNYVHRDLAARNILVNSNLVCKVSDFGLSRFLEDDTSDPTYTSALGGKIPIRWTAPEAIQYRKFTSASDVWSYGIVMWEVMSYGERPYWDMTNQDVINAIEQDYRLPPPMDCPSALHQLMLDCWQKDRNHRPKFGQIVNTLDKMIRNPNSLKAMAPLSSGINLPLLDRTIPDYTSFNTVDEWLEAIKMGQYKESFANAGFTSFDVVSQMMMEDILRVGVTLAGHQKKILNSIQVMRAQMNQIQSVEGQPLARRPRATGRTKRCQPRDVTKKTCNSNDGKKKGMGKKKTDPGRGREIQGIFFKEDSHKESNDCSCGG
Chain of UniProt P11309 (whole entry, looked up): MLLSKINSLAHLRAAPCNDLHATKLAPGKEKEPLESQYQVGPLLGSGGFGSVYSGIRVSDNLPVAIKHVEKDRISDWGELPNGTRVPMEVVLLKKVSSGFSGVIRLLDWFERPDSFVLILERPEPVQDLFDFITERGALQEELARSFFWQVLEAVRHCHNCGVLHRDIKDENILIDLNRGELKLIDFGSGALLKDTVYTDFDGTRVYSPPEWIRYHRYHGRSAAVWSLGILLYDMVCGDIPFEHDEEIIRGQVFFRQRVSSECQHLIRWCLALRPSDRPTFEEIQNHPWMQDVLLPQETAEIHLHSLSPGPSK
Chain of UniProt Q8K1N1 (whole entry, looked up): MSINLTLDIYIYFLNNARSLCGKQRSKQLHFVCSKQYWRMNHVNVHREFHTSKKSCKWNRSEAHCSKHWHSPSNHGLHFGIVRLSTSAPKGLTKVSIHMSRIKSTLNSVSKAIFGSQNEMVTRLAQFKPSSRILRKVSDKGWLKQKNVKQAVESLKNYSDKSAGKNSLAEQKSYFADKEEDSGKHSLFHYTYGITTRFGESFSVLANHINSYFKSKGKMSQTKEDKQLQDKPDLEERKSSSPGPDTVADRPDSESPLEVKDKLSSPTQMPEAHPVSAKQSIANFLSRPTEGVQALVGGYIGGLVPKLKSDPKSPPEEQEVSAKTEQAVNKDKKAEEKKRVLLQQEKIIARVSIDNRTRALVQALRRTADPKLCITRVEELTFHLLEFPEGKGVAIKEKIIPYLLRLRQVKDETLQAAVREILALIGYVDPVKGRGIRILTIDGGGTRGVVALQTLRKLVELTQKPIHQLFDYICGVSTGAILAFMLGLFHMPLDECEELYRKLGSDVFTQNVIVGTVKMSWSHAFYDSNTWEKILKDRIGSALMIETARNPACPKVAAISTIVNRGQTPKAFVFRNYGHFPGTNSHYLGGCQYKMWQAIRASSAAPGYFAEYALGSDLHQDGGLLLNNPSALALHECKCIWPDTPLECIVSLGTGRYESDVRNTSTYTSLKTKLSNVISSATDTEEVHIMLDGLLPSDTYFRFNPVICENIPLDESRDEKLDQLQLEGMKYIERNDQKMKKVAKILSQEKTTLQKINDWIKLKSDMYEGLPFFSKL
Chain of UniProt P37288 (whole entry, looked up): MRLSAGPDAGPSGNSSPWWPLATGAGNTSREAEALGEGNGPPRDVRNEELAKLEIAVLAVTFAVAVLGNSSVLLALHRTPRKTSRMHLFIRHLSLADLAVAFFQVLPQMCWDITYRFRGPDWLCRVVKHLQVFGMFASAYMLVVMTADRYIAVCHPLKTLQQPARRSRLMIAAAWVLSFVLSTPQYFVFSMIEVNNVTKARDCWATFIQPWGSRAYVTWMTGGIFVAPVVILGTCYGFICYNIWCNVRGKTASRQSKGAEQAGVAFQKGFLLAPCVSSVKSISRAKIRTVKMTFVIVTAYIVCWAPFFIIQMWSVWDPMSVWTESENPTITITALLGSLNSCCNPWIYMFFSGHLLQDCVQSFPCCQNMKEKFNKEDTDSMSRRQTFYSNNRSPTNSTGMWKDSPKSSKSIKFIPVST
Chain of UniProt Q9Y616 (whole entry, looked up): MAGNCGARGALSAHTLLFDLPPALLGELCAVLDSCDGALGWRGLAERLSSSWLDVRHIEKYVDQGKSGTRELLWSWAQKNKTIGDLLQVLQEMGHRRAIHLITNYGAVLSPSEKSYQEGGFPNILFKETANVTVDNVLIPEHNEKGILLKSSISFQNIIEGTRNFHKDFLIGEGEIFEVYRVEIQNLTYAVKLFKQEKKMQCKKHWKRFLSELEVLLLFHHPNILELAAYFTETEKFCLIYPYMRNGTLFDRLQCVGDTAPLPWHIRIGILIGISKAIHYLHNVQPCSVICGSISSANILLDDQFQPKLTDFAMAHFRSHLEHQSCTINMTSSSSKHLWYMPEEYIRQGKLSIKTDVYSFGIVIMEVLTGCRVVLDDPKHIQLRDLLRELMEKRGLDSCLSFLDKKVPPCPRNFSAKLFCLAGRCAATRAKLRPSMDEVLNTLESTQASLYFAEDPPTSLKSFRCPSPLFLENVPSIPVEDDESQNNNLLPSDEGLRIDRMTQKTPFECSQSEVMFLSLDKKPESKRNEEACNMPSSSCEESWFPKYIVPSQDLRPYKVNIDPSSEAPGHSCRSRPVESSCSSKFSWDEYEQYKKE
Chain of UniProt P23443 (whole entry, looked up): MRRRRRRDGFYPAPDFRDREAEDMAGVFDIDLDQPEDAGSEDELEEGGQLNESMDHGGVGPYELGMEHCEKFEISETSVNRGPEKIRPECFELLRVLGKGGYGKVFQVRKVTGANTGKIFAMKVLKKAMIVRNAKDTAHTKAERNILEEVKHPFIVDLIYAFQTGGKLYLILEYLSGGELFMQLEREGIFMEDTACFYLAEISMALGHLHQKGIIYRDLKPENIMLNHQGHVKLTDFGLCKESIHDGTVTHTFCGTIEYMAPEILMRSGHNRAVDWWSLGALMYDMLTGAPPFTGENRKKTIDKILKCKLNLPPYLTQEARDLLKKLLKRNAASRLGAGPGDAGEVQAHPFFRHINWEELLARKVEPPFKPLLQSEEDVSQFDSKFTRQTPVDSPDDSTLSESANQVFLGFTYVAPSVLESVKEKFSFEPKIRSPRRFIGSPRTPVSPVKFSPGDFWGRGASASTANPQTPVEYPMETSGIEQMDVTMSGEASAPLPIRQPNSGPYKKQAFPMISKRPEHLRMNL

SMILES	target or system	assay	test system	setting	scale	endpoint	value
CC(C)[C@H]1NC(=O)C[C@H]2/C=C/CCSSC[C@@H](NC1=O)C(=O)N[C@H](Cc1cccc3ccccc13)C(=O)NCC(=O)O2	RPS6KB1 (Homo sapiens, UniProt P23443)	enzyme activity, inhibitor		10 µM		inhibition	16.8%
CC(C)CC(O)(CC(C)C)c1cn(C(=O)N2CCCC2)nn1	Pnpla8 (Mus musculus, UniProt Q8K1N1)	enzyme activity, inhibitor	mouse, brain	i.p., 0.8 mg/kg, 4 h, protein level	reference: vehicle	ratio of ratios	1.83
O=C1NC(=O)c2c1c1cc(F)c[n+]3c1c1c2c2cc(O)ccc2[n]1[Ru-4]312([N]=C=S)[S+]3CC[S+]1CC[S+]2CC3 (stereo not shown)	EPHB2 (Homo sapiens, UniProt P29323)	enzyme activity		100 nM, human enzyme, added: 10 µM ATP	reference: untreated	remaining activity	117%
CS(C)(=O)=Nc1ccc(-c2ccc(-c3nc4cc(O[C@@H]5CO[C@H]6[C@@H]5OC[C@H]6O)[nH]c4cc3F)cc2)cc1	DAPK1 (Homo sapiens, UniProt P53355)	enzyme activity, inhibitor		10 µM		inhibition	5%
CONC(=O)[C@H]1[C@@H](O)[C@@]2(O)c3c(OC)cc(OC)cc3O[C@@]2(c2ccc(OC)cc2)[C@@H]1c1ccccc1		cap-dependent firefly luciferase translation	Krebs-2 cell extract	concentration not given, (AG)10-containing reporter		translation inhibition	inhibited
Nc1ccc(/C=C/C(=O)N2CCc3c(oc4c(-c5ccc(F)cc5)cc(-c5ccc(C(=O)N6CCC(F)(F)CC6)cn5)cc34)C2)cn1	PIM1 (Homo sapiens, UniProt P11309)	binding, competition with immobilised ligand		1 µM		remaining binding	93%
Cc1sc2c(c1C)C(c1ccc(Cl)cc1)=NC(CC(=O)OC(C)(C)C)c1nnc(C)n1-2 (stereo not shown)	AVPR1A (Homo sapiens, UniProt P37288)	ligand displacement, radioligand		1 µM		inhibition	-5%
Cc1ccc2c(C(C[N+](=O)[O-])c3cccs3)c(-c3ccccc3)[nH]c2c1 (stereo not shown)	CNR1 (Homo sapiens, UniProt P21554, L387A)	Gαi1-γ2 dissociation, BRET				Emax	99.1 ± 5.27%
N[C@H](C(=O)N1CCCC1)C1CCN(c2nccc3c(-c4ncc(Cl)cc4Cl)cccc23)CC1	PADI3 (Homo sapiens, UniProt Q9ULW8)	enzyme activity		0.0983 µM, added: Ca2+ 0.25 mM		kcat	0.0538 s⁻¹ and 0.0623 s⁻¹
CN(C)[C@H]1C[C@@]23CC[C@@]4(O2)C(=CC[C@]2(C)[C@@H](c5ccc6ccncc6c5)CC[C@H]24)C=C3[C@@H](O)[C@@H]1O	IRAK3 (Homo sapiens, UniProt Q9Y616)	ATP probe labelling, inhibitor, KiNativ profiling		1 µM		inhibition	20.3%
